Literature values that unrelated publications cite.
Lines come from different studies, so protocols differ. ± gives the spread as reported.

With CCN(CC)C(=S)c1ccc(-c2c3ccc(=[N+](C)C)cc-3sc3cc4c(cc23)C(C)(C)CCN4C)s1 the absorption maximum was 597 nm (methanol).
Cc1ccccc1-c1cc(N2CC[N+](C)([O-])CC2)ncc1N(C)C(=O)C(C)(C)c1cc(C(F)(F)F)cc(C(F)(F)F)c1 has a Tmax of 4.64 h (healthy volunteers, plasma; oral, dose not given, netupitant-palonosetron, fasted).
For COC(=O)c1cc(=O)n(C)c2cc(-c3ccc(OC)cc3)sc12, the absorption maximum was 400 nm (dichloromethane; 10 µM).
Cc1cc(NC2Cc3cc(F)c(F)cc3C2)n2nc(C(C)(F)F)nc2n1 gave an AUC(0-inf) of 170 µM·h (mouse, plasma; oral, 20 mg/kg).
Under “Qy emission FWHM”, COCCOCCOCCOCCC(=O)NCc1cc(CNC(=O)CCOCCOCCOCCOC)cc(-c2cc3cc4nc(c(OC)c5[nH]c(cc6nc(cc2[nH]3)CC6(C)C)cc5-c2cc(CNC(=O)CCOCCOCCOCCOC)cc(CNC(=O)CCOCCOCCOCCOC)c2)CC4(C)C)c1 is recorded as 24 nm (DMF; room temperature).
O=C1CCC(=O)N([O-])CCCCCNC(=O)CCC(=O)N([O-])CCCCCOC(=O)CCC(=O)N([O-])CCCCCN1.[Fe+3]: “log stability constant” 25.4 ± 0.1 (item: Fe).
With Oc1cc2nc(c1)CNCCCNCCCNCCNCCCNCCCNC2 the log β was 54.2 (0.15 M NaClO4; 298.1 K, sum of protonation log K).
With CC(C)OC(=O)[C@H](CO)NCc1cc(Cl)c(OCc2cccc(-c3ccccc3)c2Br)cc1OCc1cccnc1 the transformation was 100% (rat liver S9; 40 min).
Cc1ccccc1-c1cc(N2CCNCC2)ncc1N(C)C(=O)C(C)(C)c1cc(C(F)(F)F)cc(C(F)(F)F)c1 has an exposure ratio of 29% (systemic circulation; relative to: metabolite over netupitant).
With CCN(CC)c1ccc(-c2cc3c(s2)c(C(=O)OC)cc(=O)n3C)cc1 the absorption maximum was 442 nm (dichloromethane; 10 µM).
C=CC1CC1(NC(=O)C1CC(Oc2nccc3cc(OC)ccc23)CN1C(=O)C(NC(=O)OC(C)(C)C)C(C)C)C(=O)NS(=O)(=O)C1CC1 (stereo not drawn): “heart rate change” -32% (isolated perfused rabbit heart; 10 µM).
Under “sum of log protonation constants”, O=C(O)CN1CCNCCNCCN(CC(=O)O)CC1 is recorded as 26.4 (0.1 M KCl).
For NS(=O)(=O)c1ccc(N2N=C(C(F)(F)F)C(O)C2c2ccc(F)cc2F)cc1 (stereo not drawn), “share of drug-related material” read roughly 7% (liver microsomes; concentration not given).
NS(=O)(=O)c1ccc(N2N=C(C(F)(F)F)CC2c2ccc(F)cc2F)cc1 (stereo not drawn) has a terminal half-life of 27.8 h (Beagle dog; oral, 5 mg/kg).
With COc1cc(F)c(C(C)C)cc1C1=C(CN2C(=O)O[C@H](c3cc(C(F)(F)F)cc(C(F)(F)F)c3)[C@@H]2C)CC(C)(C)CC1 the Vd was 0.99 to 1.11 L/kg (rat; intravenous).
Nc1ncnc2c1ncn2[C@H]1C[C@H](O)[C@@H](COP(=O)(O)OP(=O)(O)[C@H](Cl)P(=O)(O)O)O1 gave a pKa4 of 9.5 (item: bisphosphonate leaving group; aqueous solution; measured experimentally).
CC(C)S(=O)(=O)c1cccc(O)c(=O)c1O has a pKa2 of 11.
Under “dose with liver findings”, CC(C)c1cnc(-c2cc(Cl)ccc2F)cc1Nc1ccncc1C(=O)NC(CO)CO is recorded as no less than 20 mg/kg (rat; repeat-dose toxicity, twice daily).
For COc1cc2c(NC3CCN(C)CC3)nc(N3CCCN(C)CC3)nc2cc1OCc1ccccc1, the logD was 0.9 (pH 3).
Under cardiovascular function, Cc1cc(N)nc(C[C@@H]2CNC[C@@H]2OCCNCCc2cccc(F)c2)c1 (racemic) is recorded as “no effect” (pregnant rabbits; dose not given).
Under “sinus node recovery time change”, C=C[C@@H]1C[C@]1(NC(=O)[C@@H]1C[C@@H](Oc2ncc(OC)c3cc(Cl)ccc23)CN1C(=O)[C@@H](NC(=O)OC(C)(C)C)C(C)(C)C)C(=O)NS(=O)(=O)C1CC1 is recorded as 27% (isolated perfused rabbit heart; 10 µM, time not given).
O=C([O-])CN1CCN(CC(=O)[O-])CCN(CC(=O)c2ccccc2)CCN(CC(=O)[O-])CC1.[Gd+3] — result for “activation enthalpy of water exchange”: 12 kcal/mol (concentration not given, SAP isomer).
CCCCCCc1ccc(Oc2ccccc2C#N)c(O)c1: “absorption rate constant” 0.77 h⁻¹ (mouse; 40 mg/kg).
For C=C[C@@H]1C[C@]1(NC(=O)[C@@H]1C[C@@H](Oc2ncc(OC)c3ccccc23)CN1C(=O)[C@@H](NC(=O)OC(C)(C)C)C(C)(C)C)C(=O)NS(=O)(=O)C1CC1, “sinus node recovery time change” read 18% (isolated perfused rabbit heart; 10 µM, time not given).
COc1cc(/C=C/C(=O)CC(=O)CCc2ccc(O)c(OC)c2)ccc1O gave a logP of 3.77.
Under “fluorescence quantum yield”, C[N+]1=C(C=CC=CC=C2N(CCCCCC(=O)O)c3ccccc3C2(C)C)C(C)(C)c2cc(S(=O)(=O)[O-])ccc21 is recorded as 13% (PBS).
With O=C(O[C@@H]1Cc2c(O)cc(O)cc2O[C@@H]1c1cc(O)c(O)c(O)c1)c1cc(O)c(O)c(O)c1 the chemical half-life was roughly 0.75 h (pH 7.4, 37 °C).
For CN1CCC(C)(C)c2cc3c(-c4ccc(C(=S)N5CCCCC5)s4)c4ccc(=[N+](C)C)cc-4sc3cc21, the logP was 2.6 (n-octanol/water).
O=C(Nc1ccc(Br)cc1)Nc1ccc2nc(-c3ccco3)c(-c3ccco3)nc2c1 gave an oral bioavailability of roughly 5% (mouse; oral).
For N=S(=O)(c1ccccc1)N1CCCCC1 (stereo not drawn), the recovery was 100% (sodium borate buffer; 24 h, pH 10).
COc1cc(-c2cncc(-c3ccc(C4CCN(C)CC4)cc3)c2C)cc(OC)c1OC has a brain/plasma ratio of 0.82 (SCID mouse female; oral, 10 mg/kg, 4 h).
With CC1=C(C2=C(C)C(=O)c3c(cc(O)c(O)c3C(C)C)C2=O)C(=O)c2cc(O)c(O)c(C(C)C)c2C1=O (racemic) the degradation was 23% (rat plasma; 40 min).
O=S(=O)(O)CCN(CCS(=O)(=O)O)c1ccc(/N=N/c2ccccc2)cc1 has a pKa of 2.2 (water; 10 µM).
O=C(NC1CCOCC1)c1csc([C@@H]2C[C@H]2NCC2CC2)c1 (relative stereo) — result for tolerability: “not toxic” (clinical trial; human).
With CN1CCN(c2cc(-c3ccccc3CO)c(N(C)C(=O)C(C)(C)c3cc(C(F)(F)F)cc(C(F)(F)F)c3)cn2)CC1 the AUC(0-inf) was 5820 ng·h/mL (cancer patients, plasma; oral, dose not given, netupitant-palonosetron fixed combination, added: cyclophosphamide 500-1000 mg/m^2 IV).
The plasma concentration of CCCCc1oc2ccccc2c1C(=O)c1cc(I)c(OCCNCC)c(I)c1 is reported as 1000 to 5000 nM (human, plasma; dose not given).
CC(C)C[C@H](NC(=O)[C@H](CO)NC(=O)[C@H](CCCNC(=N)N)NC(=O)[C@H](CC(=O)O)NC(=O)[C@H](CCC(=O)O)NC(=O)[C@H](C)NC(=O)[C@@H]1CCCN1C(=O)[C@H](C)NC(=O)[C@H](CCC(=O)O)NC(=O)[C@@H]1CCCN1C(=O)[C@@H]1CCCN1)C(N)=O — result for stability: “stable” (saline 0.9 %; pH 7.2-7.4).
C=C[C@@H]1C[C@]1(NC(=O)[C@@H]1C[C@@H](Oc2cc(-c3ccccc3)nc3cc(OC)ccc23)CN1C(=O)[C@@H](NC(=O)OC(C)(C)C)C(C)(C)C)C(=O)NS(=O)(=O)C1CC1 has an AUC of 2 µM·h (dog, plasma; oral, 3 mg/kg).
CN1CCc2nc(C(=O)N[C@@H]3C[C@@H](C(=O)N(C)C)CC[C@@H]3NC(=O)C(=O)Nc3ccc(Cl)cn3)sc2C1: “share of clearance by hydrolysis” less than 10% (human; dose not given, time not given, enzymatic hydrolysis).

Some of these lines once more:
For C=C[C@@H]1C[C@]1(NC(=O)[C@@H]1C[C@@H](Oc2ncc(OC)c3ccccc23)CN1C(=O)[C@@H](NC(=O)OC(C)(C)C)C(C)(C)C)C(=O)NS(=O)(=O)C1CC1, “sinus node recovery time change” read 18% (isolated perfused rabbit heart; 10 µM, time not given).
CC(C)C[C@H](NC(=O)[C@H](CO)NC(=O)[C@H](CCCNC(=N)N)NC(=O)[C@H](CC(=O)O)NC(=O)[C@H](CCC(=O)O)NC(=O)[C@H](C)NC(=O)[C@@H]1CCCN1C(=O)[C@H](C)NC(=O)[C@H](CCC(=O)O)NC(=O)[C@@H]1CCCN1C(=O)[C@@H]1CCCN1)C(N)=O — result for stability: “stable” (saline 0.9 %; pH 7.2-7.4).
With CN1CCN(c2cc(-c3ccccc3CO)c(N(C)C(=O)C(C)(C)c3cc(C(F)(F)F)cc(C(F)(F)F)c3)cn2)CC1 the AUC(0-inf) was 5820 ng·h/mL (cancer patients, plasma; oral, dose not given, netupitant-palonosetron fixed combination, added: cyclophosphamide 500-1000 mg/m^2 IV).
The plasma concentration of CCCCc1oc2ccccc2c1C(=O)c1cc(I)c(OCCNCC)c(I)c1 is reported as 1000 to 5000 nM (human, plasma; dose not given).
With Oc1cc2nc(c1)CNCCCNCCCNCCNCCCNCCCNC2 the log β was 54.2 (0.15 M NaClO4; 298.1 K, sum of protonation log K).
